# Results from different studies.
# Protocols differ between the studies behind these lines.
SMILES,cell line,observed,technique,concentration,time,reference,viability
OCC1CSC(c2ccc(O)cc2O)S1 (stereo not shown),B16-F10,,MTT,10 µM,24 h,untreated,98.4%
CC(C)=CCc1c(O)cc2c(c1O)C(=O)OC2,HepG2,cell growth or viability,CCK-8,40 µM,24 h,,87.3%
O=C(Nc1ccc(Oc2ccc(F)cc2)cc1)c1cc2ccc(Cl)cc2s1,C2C12 differentiated myotubes,,,10 µM,72 h,,76%
Cc1ccccc1C(c1c[nH]c(=O)[nH]c1=O)c1c[nH]c(=O)[nH]c1=O,Ba/F3,,,1 µg/mL,24 h,,> 90%
COc1cc([C@@H]2OC[C@@H]3[C@H]2CO[C@H]3c2cc(OC)c(O)c(OC)c2)cc(OC)c1O,HepG2,cell growth or viability,CCK-8,50 µM,24 h,,68.6%
COc1ccc([C@@H]2CC(=O)c3c(O)cc(O[C@@H]4O[C@H](CO[C@@H]5O[C@@H](C)[C@H](O)[C@@H](O)[C@H]5O)[C@@H](O)[C@H](O)[C@H]4O)cc3O2)cc1O,MRC5,cell growth or viability,MTS,50 µg/mL,48 h,,85.8%
CC(C)=CCN=C(N)NCCC[C@@H](NC(=O)CCCc1ccc(O)cc1)C(=O)N[C@@H](Cc1ccccc1)C(O)CC(=O)N[C@@H](Cc1ccc(O)cc1)C(=O)O (stereo in doubt),U-87 MG,,alamarBlue,50 µM,20 h,DMSO vehicle,no effect
O=c1[nH]cc(C(c2cccc(C(F)(F)F)c2)c2c[nH]c(=O)[nH]c2=O)c(=O)[nH]1,Ba/F3,,,5 µg/mL,24 h,,> 90%
C[C@@H]1O[C@@H](O[C@H]2[C@H](O[C@H]3CC[C@@]4(C)C(CC[C@]5(C)C4CC=C4C6CC(C)(C)CC[C@]6(C(=O)O[C@@H]6O[C@H](CO)[C@@H](O)[C@H](O)[C@H]6O)CC[C@]45C)[C@]3(C)CO)OC[C@H](O)[C@@H]2O)[C@H](O)[C@H](O[C@@H]2OC[C@@H](O)[C@H](O)[C@H]2O)[C@H]1O (stereo partly shown),HepG2,cell growth or viability,CCK-8,20 µM,24 h,,92.2%
CC(C)(C)c1ccc2[c](c1)[Au-]1([Cl])[c]3cc(C(C)(C)C)ccc3-c3cncc-2[n+]31,HL-60,cell growth or viability,MTS,1 µM,,,72%
O=c1[nH]cc(C(c2ccc(Cl)cc2)c2c[nH]c(=O)[nH]c2=O)c(=O)[nH]1,Ba/F3,,,5 µg/mL,24 h,,> 90%
CCN(c1nc(N[C@H](CC(N)=O)C(=O)NC)nc(N2CCN(c3ccccc3C#N)CC2)n1)C1CCCCC1,hBMEC,,PrestoBlue,50 µM,72 h,,> 95%
O=c1[nH]cc(C(c2cccc(Cl)c2)c2c[nH]c(=O)[nH]c2=O)c(=O)[nH]1,Ba/F3,,,1 µg/mL,24 h,,> 90%
CC(C)=CCc1c(O)cc(CO)cc1O,HepG2,cell growth or viability,CCK-8,50 µM,24 h,,62.4%
O=c1[nH]cc(C(c2ccccc2Br)c2c[nH]c(=O)[nH]c2=O)c(=O)[nH]1,Ba/F3,,,5 µg/mL,24 h,,> 90%
CCCC[C@@H]1NC(=O)[C@@H](CC(C)C)NC(=O)[C@H](CCCCN)NC(=O)NNC(=O)[C@H](Cc2c[nH]cn2)NC(=O)[C@@H](Cc2c[nH]c3ccccc23)NC1=O,PC-12,,MTT,up to 100 µM,,,not toxic

# For quick reference, copied from above:
SMILES,cell line,observed,technique,concentration,time,reference,viability
O=C(Nc1ccc(Oc2ccc(F)cc2)cc1)c1cc2ccc(Cl)cc2s1,C2C12 differentiated myotubes,,,10 µM,72 h,,76%
CC(C)=CCc1c(O)cc2c(c1O)C(=O)OC2,HepG2,cell growth or viability,CCK-8,40 µM,24 h,,87.3%
